Assay results collected from several papers.
Numbered parts are unrelated; each lists some results of a single study.

Study 1
Target: Interferon regulatory factor 7, full length, phosphomimetic (IRF7, Homo sapiens, UniProt Q92985, residues 1-503, S101K/S471D/S472D/S475D/S476D/S477D/S483D/S484D/S487D)
Method: protein-binding microarray
Molecule type: double-stranded DNA, one strand shown
Medium: in vitro
Tested at: 250 nM
Setting: 60-bp whole probe
With: salmon DNA 0.4 mg/ml
Reference: random background probes
Direction: higher = stronger binding
Constant ends, left off below: GCCTAGCAC … GTCTTGATTCGCTTGACGCTGCTG
Target sequence (chain): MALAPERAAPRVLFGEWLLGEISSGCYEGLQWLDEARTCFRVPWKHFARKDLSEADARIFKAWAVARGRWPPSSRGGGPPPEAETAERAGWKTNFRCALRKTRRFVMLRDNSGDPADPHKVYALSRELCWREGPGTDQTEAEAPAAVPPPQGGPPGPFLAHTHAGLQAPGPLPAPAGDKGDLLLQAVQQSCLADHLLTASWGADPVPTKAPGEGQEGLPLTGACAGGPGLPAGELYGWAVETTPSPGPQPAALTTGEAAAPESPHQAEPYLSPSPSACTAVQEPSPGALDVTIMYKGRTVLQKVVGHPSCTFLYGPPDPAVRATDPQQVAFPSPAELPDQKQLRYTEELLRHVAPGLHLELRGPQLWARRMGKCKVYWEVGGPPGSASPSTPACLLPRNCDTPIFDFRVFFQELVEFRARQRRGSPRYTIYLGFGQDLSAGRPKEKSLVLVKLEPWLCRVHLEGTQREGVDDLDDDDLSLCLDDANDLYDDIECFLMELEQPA
With `TTACAACTGAGTCTCGATTAGTGCTAG` the log fluorescence was 1.27 z-score.
With `TTAGATTTCAGTTCAGATTAGTGCTAG` the log fluorescence was 0.798 z-score.
`TTAGTTATCGGGACTGGGTTAGTGCTA` gave a log fluorescence of 0.281 z-score.
`TTAGGACTGCTACTGCTTGAGTGCTAG` gave a log fluorescence of -0.363 z-score.
With `TTAGGTAACGGTATCGGTTAGTGCTAG` the log fluorescence was 1.47 z-score.
For `GACGGACTGGACACTGGGGAGGTGCTA`, the log fluorescence was -0.683 z-score.
`TCAAGTCTGGGCTACAACACTGTGCTA` has a log fluorescence of -0.955 z-score.
For `GACGGGATCCTTATCCTGACGTGCTAG`, the log fluorescence was -0.413 z-score.
`TCTGTTTCCTCTTTCTTTGCGTGCTAG` has a log fluorescence of 4.16 z-score.
`TTAGGTATCCTACTTCTTTAGTGCTAG` gave a log fluorescence of 0.257 z-score.
For `GACGCTTTCGGTTTCGGGACGTGCTAG`, the log fluorescence was 7.12 z-score.
The log fluorescence of `GACGGACTGGTACTGGGGACGTGCTAG` is reported as -0.448 z-score.
The log fluorescence of `GACGGACTGCTTATCCTGCCGTGCTAG` is reported as -0.516 z-score.
The log fluorescence of `AAATGTTTTGTTTTTCATTAGTGCTAG` is reported as 1.76 z-score.
For `TCATATATACAAACTAAGACTGTGCTA`, the log fluorescence was 0.582 z-score.
`TTAGGTTTTGACTATCGGTTAGTGCTA` has a log fluorescence of 0.223 z-score.
`CACGAACTGAGTATCGAGACGTGCTAG` gave a log fluorescence of 0.077 z-score.
With `CACGATATCGGGTTTCGAGACGTGCTA` the log fluorescence was 3.19 z-score.
`GTCGGACTGGGTATCGGGACGTGCTAG` gave a log fluorescence of -0.102 z-score.

Study 2
Target: Fragile X messenger ribonucleoprotein 1, C-terminal low-complexity region (Fmr1, Mus musculus, UniProt P35922)
Method: RNA Bind-n-Seq
Molecule type: RNA
Medium: in vitro
Tested at: 200 nM
Setting: whole 134-nt RNA, ends assumed
With: 150 mM LiCl
Reference: input library
Direction: higher = stronger binding
All molecules: 7-deaza-guanosine replaces G
`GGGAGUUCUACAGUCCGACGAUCCUGUGCUACACAUCGUAUGUACCGAAUCGGGGUUUUUUUGGGUUUUUUUGGUUUUUUUGGGAAAGUAUUAUGUUACGCCGUUCGGAUCUGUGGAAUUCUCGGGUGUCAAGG` gave a log2 enrichment of 0.505.
`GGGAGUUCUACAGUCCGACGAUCCAAAGACAACACGCACCCACACAGACACAGAGGGAAGGGGUUGGGAUGGGGACAGGGUGCACAGCAGGGCGGGGUAGGACCCCAGCCCCUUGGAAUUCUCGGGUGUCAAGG` gave a log2 enrichment of 0.661.
For `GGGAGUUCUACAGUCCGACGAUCGCAGGAAGUAAAAACAAAUGGAAAUGCUUCGGAUAGUGGCAGGAAAGGGGGUUGCUAAGGAAAGGGUGGGAUGGGAGUGGGUAAAGAGUUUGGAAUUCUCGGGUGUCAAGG`, the log2 enrichment was 1.51.
With `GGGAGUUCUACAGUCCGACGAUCGUGCUACACAUCGUAUGUACCGAAUCGGGGUUUUUUUGGGGAAAAAAAGGGGAAAAAAAGGGGAAAGUAUUAUGUUACGCCGUUCGGAUCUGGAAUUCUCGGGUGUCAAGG` the log2 enrichment was -1.95.
`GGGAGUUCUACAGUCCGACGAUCCCUGUGCUACACAUCGUAUGUACCGAAUCGGGCCCCCCCGGGGCCCCCCCGGCCCCCCCGGAAAGUAUUAUGUUACGCCGUUCGGAUCUGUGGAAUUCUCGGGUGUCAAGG` has a log2 enrichment of 0.796.
With `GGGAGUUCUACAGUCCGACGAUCUCCUGUGCUACACAUCGUAUGUACCGAAUCGGGGUUUUUUUGGGGUGGGGUUUUUGGGGAAAGUAUUAUGUUACGCCGUUCGGAUCUGCAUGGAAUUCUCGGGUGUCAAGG` the log2 enrichment was -1.53.
`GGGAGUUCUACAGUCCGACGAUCUGGGAGGUGGAUUUUGUUUAUUUUUUUAGCUCAUUUCCAGGGGUGGGAAUUUUUUUUUAAUAUGUGUCAUGAAUAAAGUUCUUUUUGAAAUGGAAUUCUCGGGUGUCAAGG` gave a log2 enrichment of -0.225.
The log2 enrichment of `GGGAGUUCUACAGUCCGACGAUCAGUCCUGUGCUACACAUCGUAUGUACCGAAUCGGGCCCCGGGGCCCCGGGGCCCCGGGAAAGUAUUAUGUUACGCCGUUCGGAUCUGCACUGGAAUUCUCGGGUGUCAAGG` is reported as 0.455.

Study 3
Target: RNA binding protein fox-1 homolog 2, RRM domain, GST-SBP tag (RBFOX2, Homo sapiens, UniProt O43251-10, residues 100-194)
Method: RNA Bind-n-Seq
Molecule type: RNA
Medium: in vitro
Tested at: 365 nM
Setting: natural RNA segment, single round, ends assumed
Reference: no-protein control
Direction: higher = stronger binding
Construct (chain): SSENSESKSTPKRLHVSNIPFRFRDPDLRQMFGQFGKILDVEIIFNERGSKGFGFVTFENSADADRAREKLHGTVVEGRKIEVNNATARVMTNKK
Under “RBNS enrichment (R)”, `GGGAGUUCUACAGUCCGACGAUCGAUGUGCCAGUUUCUGAGACAUCUUUUUAAGGCUCUUACUGCAGCUCCCCUCCCCACCCUCCUCUUCUUUGCAAAACAGACCCAAGCAGGGCAGGCUCAGACCACUCGCUUGGAAUUCUCGGGUGCCAA` is recorded as 0.306.
For `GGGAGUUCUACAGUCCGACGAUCGUUAGAAUCGAAGUUUUUCAAAUCCAUUGCUUAGCUAACUUUUUCAUUCUGUCACUUGGCUUCGAUUUUUAUAUUUUCCUAUUAUAUGAAAUGUAUCUUUUGGUUGUUUGUGGAAUUCUCGGGUGCCAA`, “RBNS enrichment (R)” read 0.579.
For `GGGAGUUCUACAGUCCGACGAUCGCCCUAGUCUCCUCCAUUGACAGUCAUCCAUCUCUGCCUAAGGGACAAAGAAAUCCUUCUACCUGAGAAGGCAGAAAUAGACCUGCCCGUGGGAGGAGCAUCAAGGGGCCUGGAAUUCUCGGGUGCCAA`, “RBNS enrichment (R)” read 0.303.
`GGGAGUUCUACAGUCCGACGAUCCAACCCACAGGUUGAGAACUACUGCUCUAAGCCAAAGAUGAAAAUGGGAUUUACAUGCAGAACAAAAGAUACUGUCAAAGGCUGUGGGGUUGCAGCUCAAAUAUUUAAGUUGGAAUUCUCGGGUGCCAA` — result for “RBNS enrichment (R)”: 0.732.
`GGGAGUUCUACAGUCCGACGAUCAAUAUUACACAGUAAUGGUAAUUUAUAAAGGAGUGUAUAGUAGUAUACUGACUGCUAAGUGUACUAUACUGUUUGCUUUACUAAUCACCUAAUUCAUUGCAGUUCAUACUUGGAAUUCUCGGGUGCCAA`: “RBNS enrichment (R)” 0.951.
`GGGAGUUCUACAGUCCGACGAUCAAGAGUUUUGUUAGAGACAAGCAAUCUGUAAUCCCUCACCUGAAGACCGCAGACUGCAGCUCUGUCAUGCGAGGAAGCGCUCAAGUGUCCUGUGCGAACCCCUCGCCUCUUGGAAUUCUCGGGUGCCAA`: “RBNS enrichment (R)” 0.337.
`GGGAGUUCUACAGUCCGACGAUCUUUUUUUUCUUUUCUGCAAACCUUUGCUUUCCCAUAAACUGUAGCUUCCCCGUGACUAGGAAUUUAGCCAUAAGACUAGUUCAAGGCUAACCACCAAGCUUCCCUUUGACUGGAAUUCUCGGGUGCCAA`: “RBNS enrichment (R)” 0.43.
`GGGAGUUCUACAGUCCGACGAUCGUAAACAGACAAGGAAGAUAUCCUCUGUACCAGUGAUGUCCUGCCCCCAGUGCAUUUCUUCACAGUGAAGAAAAGGAAAAAUUUCAAAACAAUACUUUUUGUAUUAUCUAUGGAAUUCUCGGGUGCCAA`: “RBNS enrichment (R)” 0.331.

Study 4
Target: RING finger protein unkempt homolog, zinc fingers 1-6, GST-SBP tag (UNK, Homo sapiens, UniProt Q9C0B0, residues 30-357)
UniProt Q9C0B0, sequence (30-357, looked up): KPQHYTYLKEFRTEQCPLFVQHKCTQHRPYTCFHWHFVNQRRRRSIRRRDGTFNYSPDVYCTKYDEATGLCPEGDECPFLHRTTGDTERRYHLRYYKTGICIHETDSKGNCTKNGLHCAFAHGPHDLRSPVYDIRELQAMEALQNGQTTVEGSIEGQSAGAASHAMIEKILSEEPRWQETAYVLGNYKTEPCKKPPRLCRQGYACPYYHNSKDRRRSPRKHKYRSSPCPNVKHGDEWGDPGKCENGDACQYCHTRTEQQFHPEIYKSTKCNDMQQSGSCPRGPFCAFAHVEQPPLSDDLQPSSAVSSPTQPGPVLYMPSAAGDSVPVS
Method: RNA Bind-n-Seq
Molecule type: RNA
Medium: in vitro
Tested at: not given
Setting: RNA with constant flanks, human and mouse sites, ends assumed
Reference: input RNA pool
Direction: higher = stronger binding
For `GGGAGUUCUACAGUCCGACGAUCAUCGUUGAGGAGUCUUUUAAAUUAGAUUUUUGUUUUGUUGUCUCCCAAGUUAAUAUUAUAUUUAGAUAUCAGAGAGUCAGGCAAAAAGGAAAACUUUUAUCUCUAGGGAAAAAACAUUUACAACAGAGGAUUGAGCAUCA`, the bound/input enrichment was 18.5 ratio.
`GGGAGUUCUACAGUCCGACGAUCGUAAUAGAAAUUAUGUAGCUCCUUAUGUUGGCAAAGGAGCUCUAUAUAGUUUCACUUUGUAUAAAAGUUAGGACCAGCUGUUGUUACAUGUAAUAUUUUAGUUCAGAACUUGACCUGAAGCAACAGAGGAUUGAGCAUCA` gave a bound/input enrichment of 1.06 ratio.
`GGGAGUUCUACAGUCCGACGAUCGACGCCUCAGAUUUUGAGCAUAUCACUGCAGACACCCCGUCUCGGCCCCUGUCAGCCACUAGCAACCCUUUUAAGAGCUCCAAGGGCUCCCCUACUGGGAGCUCCCCAAACAAUGCAAGUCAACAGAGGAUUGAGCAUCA` gave a bound/input enrichment of 0.699 ratio.
For `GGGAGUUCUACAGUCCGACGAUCCCAGUAUUCAACAUGUCAUACAAUCCAGCAGAAAACGCAGUGCUGCUCUGCACCAGAGCAAGCAAUCUAGAGAACAGUACCUACGACCUAUACACCAUCCCCAAAGACGCAGACUCCCAGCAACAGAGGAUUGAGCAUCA`, the bound/input enrichment was 0.737 ratio.
The bound/input enrichment of `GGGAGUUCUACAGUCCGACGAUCUACGGGAAGGAUUUCAAUGAUAUCCGCCAGGACUUUCUACCCUGGAAGUCACUUGCAAGCAUAGUCCAGUUUUAUUACAUGUGGAAAACCACAGACCGGUAUAUUCAGCAGAAAAGAUUGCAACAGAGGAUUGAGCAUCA` is reported as 0.319 ratio.
`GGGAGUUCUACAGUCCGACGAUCGCACGUACAGCCCUGAAUGCAGGUGCAGUUUGGGUUUUUUGUUUUGUUUUGUUUUGUUUUAUUAGCCAGUGGGCAAAGUGAAAUGUAAUUUUGGGUAAGCCAGGGCUACUUUAGCUUUUCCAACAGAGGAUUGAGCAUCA` has a bound/input enrichment of 0.442 ratio.
For `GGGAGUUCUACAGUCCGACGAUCCCCUUUGACAUCGCUGAUACCUCCACGGCCUUUUUUUGUUAUUAUGUCCAUUACUGGGAAAAAGGAGGAAUCCAACAGGUCAAAGGCCCUUUCAGAAGCAACUCCAUUUCAUUGGAUAACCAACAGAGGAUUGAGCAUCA`, the bound/input enrichment was 0.139 ratio.
With `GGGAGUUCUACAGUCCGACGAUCAAUGCAAAAGGCUUGGCUGGAAUAUCAGGAGAAAGGAUUUGGGUGGAACUGAAAAAAAUUCUUGUUGGUAACCAUGUAAAUCAUUUGAUUCACCUUAUCUAUGAUCUUGAUGUGGCUCCUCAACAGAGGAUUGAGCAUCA` the bound/input enrichment was 0.189 ratio.

Excerpt of the above (study 1):
The log fluorescence of `AAATGTTTTGTTTTTCATTAGTGCTAG` is reported as 1.76 z-score.
`TTAGTTATCGGGACTGGGTTAGTGCTA` gave a log fluorescence of 0.281 z-score.
For `GACGCTTTCGGTTTCGGGACGTGCTAG`, the log fluorescence was 7.12 z-score.
With `TTACAACTGAGTCTCGATTAGTGCTAG` the log fluorescence was 1.27 z-score.
`TTAGGACTGCTACTGCTTGAGTGCTAG` gave a log fluorescence of -0.363 z-score.
